Experimental data pooled from the literature.
Each numbered part is a random draw from the data of one study; scales do not carry over between parts. Substitutions count along the parent as printed.
UniProt P46098, sequence (whole entry, looked up): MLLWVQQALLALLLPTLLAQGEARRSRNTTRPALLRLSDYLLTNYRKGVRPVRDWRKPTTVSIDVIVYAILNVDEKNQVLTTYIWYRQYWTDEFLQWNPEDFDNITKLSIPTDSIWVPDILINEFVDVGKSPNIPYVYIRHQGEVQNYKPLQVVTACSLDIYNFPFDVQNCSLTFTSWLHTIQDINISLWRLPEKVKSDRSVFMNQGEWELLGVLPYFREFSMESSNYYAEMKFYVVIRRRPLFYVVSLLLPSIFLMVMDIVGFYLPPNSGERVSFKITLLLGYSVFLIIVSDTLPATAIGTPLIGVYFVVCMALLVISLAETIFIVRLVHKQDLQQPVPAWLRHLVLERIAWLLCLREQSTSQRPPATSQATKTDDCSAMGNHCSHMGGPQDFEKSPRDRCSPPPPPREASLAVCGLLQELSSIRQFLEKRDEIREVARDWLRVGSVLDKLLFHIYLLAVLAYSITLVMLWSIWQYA

Study 1 — target: CEP164, C-terminal peptide (human); method: DHFR complementation, deep sequencing; matrix: yeast; baseline: wild type; reading: higher = weaker binding
Notes: single substitutions, model-inferred values
Starting sequence: PDZK1, PDZ domain 2 (human); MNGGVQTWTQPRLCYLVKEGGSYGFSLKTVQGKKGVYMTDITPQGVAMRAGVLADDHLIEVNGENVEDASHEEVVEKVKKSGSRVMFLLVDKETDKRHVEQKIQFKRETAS; partner HNRVKVYRF
Variant	binding free energy change [kJ/mol]
A50I	2.92
P11C	0.965
E19M	1.38
H98P	0.131
H71A	-1.52
K33W	1.3
Q10S	0.195
L13F	0.0703

Study 2 — method: RNA Bind-n-Seq; form: RNA; matrix: in vitro; tested at: 100 nM; baseline: input RNA pool; reading: higher = stronger binding
Target: RING finger protein unkempt homolog, zinc fingers 1-6, SBP tag (UNK, Homo sapiens, UniProt Q9C0B0, residues 30-357)
UniProt Q9C0B0, sequence (30-357, looked up): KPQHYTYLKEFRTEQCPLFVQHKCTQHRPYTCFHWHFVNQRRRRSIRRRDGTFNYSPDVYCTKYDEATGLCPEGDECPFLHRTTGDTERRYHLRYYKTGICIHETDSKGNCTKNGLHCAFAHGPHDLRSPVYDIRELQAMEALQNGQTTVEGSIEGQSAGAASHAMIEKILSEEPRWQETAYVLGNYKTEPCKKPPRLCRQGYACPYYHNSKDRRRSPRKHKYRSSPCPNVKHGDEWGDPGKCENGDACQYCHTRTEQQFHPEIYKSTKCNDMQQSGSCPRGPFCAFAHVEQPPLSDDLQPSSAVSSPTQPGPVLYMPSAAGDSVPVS
Notes: RNA with constant flanks, vertebrate orthologous sites, ends assumed
Oligonucleotide	bound/input enrichment
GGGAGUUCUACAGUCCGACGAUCGAGCUAAAGGAGUUAGCACCUUUAUUUUUGUAUCAAAGACAAAGGUUAUUUUGAAAUUAUUAGGAUUUUUACACAACUGUGAAAUCUGUUGCUUUUGUAAACAAGUUGUUUGAUCUUAGGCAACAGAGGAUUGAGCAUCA	0.589 ratio
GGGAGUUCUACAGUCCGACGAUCUGGGUUUCUCCUAUUAUUAUCAAGUAGCUGGAAUUGUGAAGGUUGGAGUAGUUAGAUCUUUAGCUUUUAUUCUUUUUUUUUUUUGUAUUACUAUCCAUGUGUAUAAAUUAUUGAUCAUGUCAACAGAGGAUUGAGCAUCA	6.24 ratio
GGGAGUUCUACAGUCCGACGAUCUUGGGAACAGCUCUCCAAAUAGGAAUAGUAGUAAAAAAAAUAAGCAAAAUGAUAUUUGUGUAGAAAAAACAGAAGUUAAAUCAUGUAAAGUAAAUGCUGCCAACCUUCCGGGUCCUAAAGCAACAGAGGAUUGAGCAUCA	1.35 ratio
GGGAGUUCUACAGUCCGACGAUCUGCAGGAAUGGCCCCCAUCCCGCCUGUUUAUUCUGUAAACUACAGCCUGUAAAUAACAUUUAGCAUUCCUAUUGUAACAAAAUUAAUUUUUAUGAAAUAAAUUAUAUUUCCUAGUCUAAUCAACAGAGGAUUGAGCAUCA	0.759 ratio
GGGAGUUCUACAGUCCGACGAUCAUUCAAACCUGUGGUACCAUGGCCUCAUGUUGAAGGAGUAGAAGUGGACUUAGAGUCUAUUAGAAGAAAAAACAAGGCGAAAAAUGAACAAGAGCGCCAUGCUGGAGGAGAUAACCAGAACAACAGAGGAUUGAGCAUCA	0.606 ratio
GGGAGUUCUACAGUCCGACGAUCAUUCAUCUCUUUUUAUAUGUCCGAAAACGGCCGAGCUUUUCAGCAGUGGCUGGCUUGGCCGACUCUGCCGUCCCUGGCAGAGCGUUGUUACUGUUGCUCCUUAGCAGCUGCUGCCUGGUGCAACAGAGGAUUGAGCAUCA	0.627 ratio
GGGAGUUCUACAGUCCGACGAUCAUUCAAACCUGUGGUACCAUGGCCUCAUGUUGAAGGAGUAGAAGUGGACUUAGAGUCUAUUAGAAGAAAAAACAAGGCCAAAAAUGAACAAGAGCAUCAUGCUGGAGGAGAUUCCCAGAACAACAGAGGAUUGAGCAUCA	0.39 ratio
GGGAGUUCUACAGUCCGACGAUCCUCCACUACUCCUGGGUGCGUGACUCCAGUGAAGCAUCCACCAGUGCUGCAAGGGGUCCAGAGUAUUGUUUUUUUUGCUGUUUCAGUCCCCAGUGCCUACCAGCAGAAGUGGCAGUAGAUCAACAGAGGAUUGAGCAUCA	0.554 ratio

Study 3 — method: RNA Bind-n-Seq; form: RNA; matrix: in vitro; tested at: 1 µM; notes: whole 134-nt RNA, ends assumed; with: 150 mM KCl; baseline: input library; reading: higher = stronger binding
Target: Ras GTPase-activating protein-binding protein 1, C-terminal RGG region (G3BP1, Homo sapiens, UniProt Q13283)
UniProt Q13283, sequence (whole entry, looked up): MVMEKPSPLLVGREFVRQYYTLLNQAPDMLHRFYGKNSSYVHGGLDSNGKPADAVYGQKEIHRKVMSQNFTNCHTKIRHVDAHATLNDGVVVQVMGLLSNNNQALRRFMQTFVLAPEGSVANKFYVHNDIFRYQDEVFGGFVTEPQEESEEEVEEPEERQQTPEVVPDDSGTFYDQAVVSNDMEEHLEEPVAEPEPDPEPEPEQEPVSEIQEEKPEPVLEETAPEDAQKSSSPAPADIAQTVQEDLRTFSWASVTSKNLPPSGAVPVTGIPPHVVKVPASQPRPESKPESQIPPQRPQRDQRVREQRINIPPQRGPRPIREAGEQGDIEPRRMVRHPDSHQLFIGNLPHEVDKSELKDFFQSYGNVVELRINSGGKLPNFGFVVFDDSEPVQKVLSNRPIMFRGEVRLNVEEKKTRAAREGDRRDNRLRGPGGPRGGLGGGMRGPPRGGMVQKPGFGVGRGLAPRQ
Oligonucleotide	log2 enrichment
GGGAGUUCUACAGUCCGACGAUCGUCCUGUGCUACACAUCGUAUGUACCGAAUCGGGGAAAGGGGAAAAAAAGGGGAGGGGAAAGUAUUAUGUUACGCCGUUCGGAUCUGCACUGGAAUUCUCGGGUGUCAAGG	1.68
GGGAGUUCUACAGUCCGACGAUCCUGUGCUACACAUCGUAUGUACCGAAUCGGGGCCCCCCCGGGCCCCCCCGGCCCCCCCGGGGAAAGUAUUAUGUUACGCCGUUCGGAUCUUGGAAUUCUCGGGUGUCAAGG	-2.33
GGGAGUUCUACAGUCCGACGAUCACCAUGCGGGUGGGCAUCUUUGGGAAGUGGGGCAAGGGGGGGAUAGGGAGGGGGGUAACACUUUGGGAACAGGUGGUCCCAGGUCGUUUCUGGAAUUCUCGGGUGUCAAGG	-1.28
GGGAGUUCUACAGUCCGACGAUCCCUGUGCUACACAUCGUAUGUACCGAAUCAAAUUUUUAAAUUUUUUUAAACCCCCCCAAAAAAGUAUUAUGUUACGCCGUUCGGAUCUGCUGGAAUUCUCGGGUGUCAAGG	-0.798
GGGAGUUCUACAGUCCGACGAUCUGUGCUACACAUCGUAUGUACCGAAUCGGGGAAAAAAAGGGGAAAAAAAGGGAAAAAAAGGGGAAAGUAUUAUGUUACGCCGUUCGGAUCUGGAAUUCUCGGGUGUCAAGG	-0.709
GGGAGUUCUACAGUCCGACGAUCUGGUGACCUACCUGGACGUCCGGAGCUGCCUUGGACACCUAGGCUACCUGGGCUACCCCACCCUCUGUGAGCAGGACCAGGCCCAUGCCAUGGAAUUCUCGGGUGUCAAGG	-0.0644
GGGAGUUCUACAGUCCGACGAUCACCAUGCAGGUGGGCAUCUUUGGGAAGCGGGGCAAGGGGGGGAUAGGGAGGGGGGUAACACUUUGGGAACAGGUGGUCCCAGGUCGUUUCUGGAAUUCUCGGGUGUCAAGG	-1.28
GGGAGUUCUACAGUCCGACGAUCAGUCCUGUGCUACACAUCGUAUGUACCGAAUCAAACCCCCCCAAACCCAAAUUUAAAAAAGUAUUAUGUUACGCCGUUCGGAUCUGCACUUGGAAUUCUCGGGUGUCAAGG	-0.989

Single results of other studies
SMILES	target	test	conditions	measurement	result
C[C@@]1(Cc2ccc(C#N)cc2)C(=O)N(c2cc(Cl)cc(Cl)c2)c2ncc(C(=O)NC3(c4nc(C5CCC5)no4)CC3)n21	5-hydroxytryptamine receptor 3A (HTR3A, Homo sapiens, UniProt P46098)	binding, radioligand binding	10 µM	inhibition	17.9%

Repeated from above (study 1):
Variant	binding free energy change [kJ/mol]
L13F	0.0703
E19M	1.38
K33W	1.3
H71A	-1.52
